Literature values that unrelated publications cite.
Lines come from different studies, so protocols differ. ± gives the spread as reported.

CC(C)NCCCn1c(Sc2cc3c(cc2I)OCO3)nc2c(N)ncnc21 — IC50 (cancer cell lines; cell growth; approximate value): 0.15 to 0.3 µM
NCCCNC(=O)c1cn(CCCc2ccccc2)c2cc(Cl)ccc2c1=O — IC50 (HepG2; cell growth): ≤ 1 µM
C[C@@H]1NC(=O)[C@H](CCCNC(=N)N)NC(=O)[C@H](Cc2ccc3ccccc3c2)NC(=O)[C@H]2CCCCN2C(=O)[C@@H]([C@H](C)OP(=O)(O)O)NC(=O)CN(C)C(=O)[C@@H](C)NC(=O)c2cc3cc(c2)C(=O)NC[C@H](NC(=O)[C@@H](C)NC1=O)C(=O)N[C@@H](Cc1ccccc1)C(=O)N[C@@H](Cc1ccc2ccccc2c1)C(=O)N[C@@H](CCCNC(=N)N)C(=O)N[C@@H](CCCNC(=N)N)C(=O)N[C@@H](CCCNC(=N)N)C(=O)N[C@@H](CCCNC(=N)N)C(=O)N[C@H](C(=O)N[C@@H](CCCCN)C(N)=O)CNC3=O — IC50 (HeLa; cell growth): 1.8 µM
Nc1nc2sc(CCCCc3ccc(C(=O)N[C@@H](CCC(=O)O)C(=O)O)cc3)cc2c(=O)[nH]1 — IC50 (CHO PC43-10 (human RFC); cell growth): > 1 µM
CC(=O)N[C@@H](CCCNC(=N)N)C(=O)N[C@H](C(=O)N[C@@H](CCCCN)C(=O)N[C@@H](CO)C(=O)N[C@@H](CCCNC(=N)N)C(=O)N[C@H](C(=O)N[C@@H](Cc1c[nH]c2ccccc12)C(=O)N[C@@H](C)C(=O)NCC(=O)N[C@@H](CCC(=O)O)C(=O)N[C@@H](CCCCN)C(=O)N[C@@H](CO)C(=O)N[C@@H](CCCCN)C(=O)N[C@@H](CCCNC(=N)N)C(N)=O)[C@@H](C)OP(=O)(O)O)[C@@H](C)O — IC50 (cSCC cells; cell death): 22.1 µM
C[C@H](NC(=O)CNC(=O)[C@@H]1CCCN1C(=O)[C@H](CO)NC(=O)CNC(=O)CN)C(=O)N[C@@H](CCCCN)C(=O)N[C@@H](CCCCN)C(=O)N[C@@H](CC(N)=O)C(=O)N[C@H](C(=O)N[C@@H](CCCCN)C(=O)N[C@@H](CO)C(=O)N[C@@H](C)C(=O)N[C@@H](CS)C(=O)NCC(=O)N[C@@H](CCCCN)C(=O)N[C@@H](C)C(=O)N[C@@H](CS)C(=O)N[C@@H](C)C(=O)N[C@@H](CS)C(=O)N[C@@H](Cc1c[nH]cn1)C(=O)O)[C@@H](C)O — MIC (Staphylococcus aureus): > 128 µM
CC(=O)OC1C(=O)C2(C)C(O)CC3OCC3(OC(C)=O)C2C(OC(=O)c2cccc(OC(F)(F)F)c2)C2(O)CC(OC(=O)C(O)C(C=C(C)C)NC(=O)OC(C)(C)C)C(C)=C1C2(C)C (stereo not drawn) — IC50 (MCF7/PTX, paclitaxel-resistant; cell viability): 0.019 ± 0.00203 µM
Nc1nc2[nH]c(CCCCc3ccc(C(=O)N[C@@H](CCC(=O)O)C(=O)O)cc3)cc2c(=O)[nH]1 — IC50 (CHO PC43-10 (human RFC); cell growth): > 1 µM
CCN(CC)C(C)CNC(=O)c1cn(Cc2ccccc2)c2cc(Cl)ccc2c1=O (stereo not drawn) — IC50 (several cancer cell lines; range over cell lines): 4.43 to 19.5 µM
CC(=O)OC12COC1CC(O)C1(C)C(=O)C(OC(=O)C3CC3)C3=C(C)C(OC(=O)C(O)C(C=C(C)C)NC(=O)OC(C)(C)C)CC(O)(C(OC(=O)c4cccc(OC(F)(F)F)c4)C21)C3(C)C (stereo not drawn) — IC50 (MCF7/PTX, paclitaxel-resistant; cell viability): 0.0349 ± 0.00297 µM
CC[C@H](C)[C@H](NC(=O)[C@H](CC(C)C)NC(=O)[C@H](CCCNC(=N)N)NC(=O)CNC(=O)CNC(=O)[C@H](CCCCN)NC(=O)[C@H](CCCNC(=N)N)NC(=O)[C@H](CC(C)C)NC(=O)[C@H](CC(C)C)NC(=O)[C@H](CCCNC(=N)N)NC(=O)[C@@H](NC(=O)[C@H](CC(C)C)NC(=O)[C@@H](N)CO)[C@@H](C)O)C(=O)NCC(=O)N[C@@H](Cc1c[nH]c2ccccc12)C(=O)N[C@@H](CCCNC(=N)N)C(=O)N[C@@H](Cc1c[nH]c2ccccc12)C(=O)N[C@@H](CCC(=O)O)C(=O)N[C@@H](CCCCN)C(=O)N[C@H](C(=O)N[C@@H](CCCNC(=N)N)C(=O)N[C@@H](CC(N)=O)C(=O)N[C@@H](Cc1c[nH]c2ccccc12)C(=O)N[C@H](C(=O)N[C@@H](CCCNC(=N)N)C(=O)N[C@@H](CCCNC(=N)N)C(=O)N[C@H](C(=O)N[C@H](C(=O)N[C@@H](CCC(=O)O)C(=O)N[C@@H](CCCCN)C(=O)N[C@@H](CCCNC(=N)N)C(=O)N[C@@H](CCCCN)C(=O)N1CCC[C@H]1C(=O)N[C@@H](CC(N)=O)C(=O)N[C@@H](CCCCN)C(=O)O)[C@@H](C)CC)[C@@H](C)CC)[C@@H](C)CC)[C@@H](C)O — MIC (Staphylococcus aureus): > 128 µM
CCCN(C)c1cc(C(F)(F)F)nc(SCCC(=O)NCc2ccco2)n1 — cell death (SNU-C5; inhibitor; concentration not given, together with: EPEC-1 infection): inhibited
